Measurements pooled from the literature.
Each line is one published result; not all experiments were run side by side. “And” joins repeats or separate records; there may be more than shown. Numbers after ± are the reported error.

Compound	cell line	test	system	setting	how to read	measurement	value
COc1cc(Nc2nccc(-c3cnn4nc(OC)ccc34)n2)cc(C(F)(F)F)c1	Hep3B2.1-7	cell growth, CellTiter-Glo	liver			IC50	2.4 µM
COC1=CC(=O)C=C(OC)C1=O	human iPSC-derived cardiomyocytes	MyBP-C/MYH ratio, plate-normalised SD score		concentration not given, primary screen	direction not given	activity score	4.2
CC(C)NCC(O)c1ccc(O)c(O)c1 (stereo not shown)	mouse ventricular cardiomyocytes			dose not given, 0.355 s		sarcomere length	1.8 µm
O=C(Cn1c(=O)n(Cc2ccc(F)cc2)c(=O)c2sc3ccccc3c21)Nc1ccc(F)cc1F	C127 LDR GFP reporter cells	silenced GFP reporter induction, activator, high-content imaging		independent samples, two-run mean		maximum efficacy	43%
CN1CCN(c2ccc3[nH]c(-c4ccc5[nH]c(-c6ccc(C(F)(F)F)cc6)nc5c4)nc3c2)CC1	M14	SRB		10 µM, 48 h		growth percent	43.8%
COc1ccc(Nc2nc3c(S(=O)(=O)c4ccccc4)nnn3c3ccc(Cl)cc23)cc1	C127 LDR GFP reporter cells	silenced GFP reporter induction, activator, high-content imaging		independent samples, two-run mean		maximum efficacy	16%
COC(=O)C(N)CS (stereo not shown)	human iPSC-derived cardiomyocytes	MyBP-C/MYH ratio, plate-normalised SD score		concentration not given, primary screen	direction not given	activity score	3.2
COc1ccc(OC)c(Nc2nc3nonc3nc2N2CCCC(C)C2)c1 (stereo not shown)	C127 LDR GFP reporter cells	silenced GFP reporter induction, activator, high-content imaging		retest, two-run mean		efficacy	31%
COc1ccc(-n2nc(C(C)=O)s/c2=N\N=C(/C)c2ccc(NC(=O)c3ccc(C)cc3)cc2)cc1	HepG2			1.25 µM		toxicity	86.6%
CCOC(=O)CSc1nc(-c2ccc(Cl)cc2)c2c(NC(=O)c3ccccc3)nnc-2[nH]1	NCI60 cell panel	SRB		10 µM		mean growth percent	96.6%
Clc1ccc(C2(c3ccc(-c4cn[nH]c4)cc3)CCNCC2)cc1	primary CLL cells	flow cytometry	human	0.1 µM, 24 h	baseline: DMSO, higher = more protein	Bcl-2 MFI	3910 a.u.
COc1cnc2cccc(N3CCc4c(cc(Cn5ccnc5C)cc4-c4cn(C)nc4C(F)(F)F)C3=O)c2c1	REH	cell growth, inhibitor		120 h		EC50	> 30 µM
CN(C)c1ccc(C(=C2C=CC(=[N+](C)C)C=C2)c2ccc(N(C)C)cc2)cc1	human iPSC-derived cardiomyocytes	MyBP-C/MYH ratio, plate-normalised SD score		concentration not given, primary screen	direction not given	activity score	5.9
CC(=O)c1nn(-c2ccc(Cl)cc2)/c(=N/N=C(\C)c2ccc(NC(=O)c3ccccc3)cc2)s1	HepG2			0.312 µM		toxicity	85.5% and 96.9%
CCCCc1nc(Cl)c(CO)n1Cc1ccc(-c2ccccc2-c2nn[nH]n2)cc1	human PBMC	RNA-seq, refers to: STEAP4 mRNA		10 µg/mL, 24 h	baseline: untreated control	log2 fold change	-1.9
Clc1nc(NCc2ccco2)c2[nH]cnc2n1	FD iPSC-derived cardiomyocytes	alternative splicing, RNA-seq, refers to: CCNJL exon chr5:160280524-160280948		unit not given	baseline: DMSO minus compound	ΔPSI	0.209
CCOC(=O)N1CCC(CN(Cc2ccc(Cl)cc2)Cc2ccc([N+](=O)[O-])s2)C1 (stereo not shown)	knock-down, REV-ERBα/β, HepG2	transcription, qPCR, refers to: BMAL1 mRNA		concentration not given		inhibition	16%
CC/C(=N\NC(=O)NCc1cccc(O)c1)c1ccc(O)c(C)c1O	SK-OV-3	Western blot		10 µM, 1 h, 2D culture, unit not given	baseline: DMSO	TAZ band intensity	0.21 ± 0.11
Cn1cc(-c2ccc(-c3cncc(Cl)c3N3CCC4(CCNC4=O)CC3)cc2)cn1	COLO 205	gene expression, microarray, refers to: PLD1 mRNA		concentration not given, 2 h	baseline: untreated cells	log2 fold change	2.16
O=c1[nH]c(=O)c2cc(S(=O)(=O)Nc3ccc(N4CCCCCC4)cc3)ccc2[nH]1	adult rat ventricular myocytes			10 µM	baseline: basal	fractional shortening	173%
Cn1cncc1C1=CN(c2ncnc3[nH]cnc23)CCS1	T29			colon cancer		GI50	11.7 µM
COc1cc(C(=O)NCCCCCC(=O)O)cc(OC)c1OC	human iPSC-derived cardiomyocytes	MyBP-C/MYH ratio, plate-normalised SD score		concentration not given, primary screen	direction not given	activity score	3.8
CCn1cc(-c2cc(Cn3ccnc3)cc3c2CCN([C@H](c2cc(OC)ccn2)C2CC2)C3=O)c(C(F)(F)F)n1	SNU-182	cell growth, inhibitor		120 h		EC50	> 30 µM
CN(C)S(=O)(=O)c1cccc(NC(=S)N/N=C/c2ccco2)c1	C127 LDR GFP reporter cells	silenced GFP reporter induction, activator, high-content imaging		independent samples, two-run mean		maximum efficacy	25%
COc1cc(C(=O)Nc2cc(OCCN3CCCC3)c3ccccc3n2)nc(C(=O)Nc2cc(OCCN3CCCC3)c3ccccc3n2)c1	U2OS	cell viability, CellTiter-Glo		72 h	baseline: IC50 U2OS over WI-38	selectivity ratio	2.4

Compound	cell line	test	system	setting	how to read	measurement	value
CCCCc1oc2ccc(NS(C)(=O)=O)cc2c1C(=O)c1ccc(OCCCN(CCCC)CCCC)cc1	human embryonic stem cell aggregates	mRNA level, microarray, refers to: GPC4		0.5 µM, 120 h	baseline: untreated, down-regulated	fold change	2.1 fold
C=CCn1c(=O)c2cnc(Nc3ccc(N4CCN(C)CC4)cc3)nc2n1-c1ccc2c(n1)[C@@](O)(CC)CC2	A-427	capillary western blot		0.1, 0.3, 1 µM, 16 h		cyclin E1 level	decreased
C#C[C@@]1(O)[C@@H](CO)O[C@@H](n2cc(Br)c3c(N)ncnc32)[C@@H]1O	M14	SRB		NCI-60 screen		TGI	12.9 µM and 14.2 µM
CC(=O)N(c1onc(C)c1C)S(=O)(=O)c1ccc(N)cc1	human iPSC-derived cardiomyocytes	MyBP-C/MYH ratio, plate-normalised SD score		concentration not given, primary screen	direction not given	activity score	3.2
O=C(CCCSc1nc2c(c(=O)[nH]1)CCCC2)Nc1ccccc1	cells, COS-1, expressing proMMP-9	cell migration, 2D collagen dot migration		50 µM, 18 h		inhibition	76 ± 1%
COc1cccc2c1C(=O)c1c(O)c3c(c(O)c1C2=O)C[C@@](O)(C(=O)CO)C[C@@H]3O[C@H]1C[C@H](N)[C@H](O)[C@H](C)O1	HepG2	refers to: metallothionein protein		24 h, distribution mode 1		point of departure	0.0282 µM
CSCC[C@H](NC(=O)[C@H](Cc1ccc(OS(=O)(=O)O)cc1)NC(=O)[C@@H](N)CC(=O)O)C(=O)NCC(=O)N[C@@H](Cc1c[nH]c2ccccc12)C(=O)N[C@@H](CCSC)C(=O)N[C@@H](CC(=O)O)C(=O)N[C@@H](Cc1ccccc1)C(N)=O	HEK293T control virus	agonist, GloSensor cAMP		80 nM, no receptor expressed	higher = more cAMP	cAMP accumulation	0.247 a.u.
NCCCOc1cc(NC(=O)c2cccc(C(=O)Nc3cc(OCCCN)c4ccccc4n3)n2)nc2ccccc12	U2OS	cell viability, CellTiter-Glo		72 h	baseline: IC50 U2OS over WI-38	selectivity ratio	1.1
Cc1cc(Nc2ncc(Cl)c(Nc3ccccc3S(=O)(=O)C(C)C)n2)c(OC(C)C)cc1C1CCNCC1	CLB-GE	phosphoproteomics LC-MS/MS, refers to: PDCD4 phosphorylation		200 nM, 60 min	baseline: untreated	log2 fold change	-1.59
CC1=CC2C(CC1=O)C(C)=CCC2C(C)C (stereo not shown)	human iPSC-derived cardiomyocytes	MyBP-C/MYH ratio, plate-normalised SD score		concentration not given, primary screen	direction not given	activity score	3
O=C(/C=C/C=C/C=C/C1CCCCC1)NC1=C[C@@](O)(/C=C/C=C/C=C/C(=O)NC2=C(O)CCC2=O)[C@@H]2O[C@@H]2C1=O	PaTu 8902	cell growth, CellTiter-Glo		78 h		GI50	> 30 µM
CCn1cc(-c2cc(Cn3ccoc3=N)cc3c2CCN([C@@H](C)c2cc(OC)ccn2)C3=O)c(C(F)(F)F)n1	REH	cell growth, inhibitor		120 h		EC50	0.764 µM
NNc1nc(-c2ccc(Cl)cc2)c2c(NC(=O)c3ccccc3)nnc-2[nH]1	NCI60 cell panel	SRB		10 µM		mean growth percent	101%
CCCCCCNC(=O)CCCSc1nc2ccccc2c(=O)[nH]1	cells, COS-1, expressing proMMP-9	cell migration, 2D collagen dot migration		50 µM, 18 h		inhibition	56 ± 1%
CCOc1ccc(NC(=O)c2nc(S(=O)(=O)Cc3ccccc3F)ncc2Cl)cc1	C127 LDR GFP reporter cells	silenced GFP reporter induction, activator, high-content imaging		independent samples, two-run mean		maximum efficacy	14%
CC[C@H](C)N(CC(=O)N(CC(=O)N(CC(=O)N(CC(=O)N(CC(=O)N(CC(=O)N(CC(N)=O)[C@@H](C)c1ccccc1)[C@@H](C)c1ccccc1)[C@@H](C)CC)[C@@H](C)c1ccccc1)[C@@H](C)c1ccccc1)[C@@H](C)CC)C(=O)CNCCCCN	THP-1 macrophages	ELISA, refers to: IL-1β, IL-6, IL-8		2, 10, 50 µM, 72 h, added: LPS 2 ng/mL		cytokine release	decreased
C=CC1=C(C)c2cc3[n-]c(cc4nc(cc5[n-]c(cc1n2)c(C)c5C=C)C(C)=C4CCC(=O)O)c(CCC(=O)O)c3C.[Zn+2]	SH-SY5Y	RNA-seq, refers to: ERRFI1 mRNA		5 µM, 5 h	baseline: untreated cells	fold change	1.58
Cn1cc(Nc2nccc(-c3ccc4c(c3)CN(C3COC3)CC[C@H]4NC(=O)c3cn(C(C)(C)C)nn3)n2)cn1	human B cells			100 nM, 64 h, stimulation-upregulated genes, added: CpG ODN2006		number of unchanged genes	79
C=C1C(=O)O[C@@H]2C[C@@]3(C)CCC[C@H](C)C3=C[C@H]12	human iPSC-derived cardiomyocytes	MyBP-C/MYH ratio, plate-normalised SD score		concentration not given, primary screen	direction not given	activity score	5.8
C=Cc1c2[n-]c(c1C)/C=c1\[n-]/c(c(C)c1C=C)=C\c1[n-]c(c(CCC(=O)O)c1C)/C=c1\[n-]c(c(C)c1CCC(=O)O)=C2.[Sn+4]	SH-SY5Y	RNA-seq, refers to: HSPB8 mRNA		5 µM, 5 h	baseline: untreated cells	fold change	2.14
Cc1cccc(-c2[nH]c(CNc3ccccc3F)nc2-c2ccc3ncnn3c2)n1	RPMI-8226	flow cytometry, refers to: CD162		concentration not given	baseline: comparator compound alone	surface marker level	55.9%
N#Cc1sc2nc(-c3ccccc3)cc(C(F)(F)F)c2c1N	C127 LDR GFP reporter cells	silenced GFP reporter induction, activator, high-content imaging		retest, two-run mean		efficacy	20%
C[C@@H]1CN(c2c(F)c(F)c3c(=O)c(C(=O)O)cn(C4CC4)c3c2F)C[C@H](C)N1	human iPSC-derived cardiomyocytes	MyBP-C/MYH ratio, plate-normalised SD score		concentration not given, primary screen	direction not given	activity score	4.1
Nc1cccc2c1C(=O)N(C1CCC(=O)NC1=O)C2=O (stereo not shown)	bone marrow CD138+ myeloma cells	XTT		1.6 µM, mean of three patients		viability	17%

Repeated from above:
Compound	cell line	test	system	setting	how to read	measurement	value
CC/C(=N\NC(=O)NCc1cccc(O)c1)c1ccc(O)c(C)c1O	SK-OV-3	Western blot		10 µM, 1 h, 2D culture, unit not given	baseline: DMSO	TAZ band intensity	0.21 ± 0.11
COC(=O)C(N)CS (stereo not shown)	human iPSC-derived cardiomyocytes	MyBP-C/MYH ratio, plate-normalised SD score		concentration not given, primary screen	direction not given	activity score	3.2
C=C1C(=O)O[C@@H]2C[C@@]3(C)CCC[C@H](C)C3=C[C@H]12	human iPSC-derived cardiomyocytes	MyBP-C/MYH ratio, plate-normalised SD score		concentration not given, primary screen	direction not given	activity score	5.8
CCCCc1nc(Cl)c(CO)n1Cc1ccc(-c2ccccc2-c2nn[nH]n2)cc1	human PBMC	RNA-seq, refers to: STEAP4 mRNA		10 µg/mL, 24 h	baseline: untreated control	log2 fold change	-1.9
Cc1cc(Nc2ncc(Cl)c(Nc3ccccc3S(=O)(=O)C(C)C)n2)c(OC(C)C)cc1C1CCNCC1	CLB-GE	phosphoproteomics LC-MS/MS, refers to: PDCD4 phosphorylation		200 nM, 60 min	baseline: untreated	log2 fold change	-1.59
COc1cnc2cccc(N3CCc4c(cc(Cn5ccnc5C)cc4-c4cn(C)nc4C(F)(F)F)C3=O)c2c1	REH	cell growth, inhibitor		120 h		EC50	> 30 µM
